Experimental data pooled from the literature.
Lines come from different studies, so protocols differ. Several values in a cell are separate wells, animals, samples, runs or records. ± marks the error that the study gave.
U2AF2: U2AF2 148-342 (Homo sapiens, UniProt P26368)
Sequence of UniProt P26368 (whole entry, looked up): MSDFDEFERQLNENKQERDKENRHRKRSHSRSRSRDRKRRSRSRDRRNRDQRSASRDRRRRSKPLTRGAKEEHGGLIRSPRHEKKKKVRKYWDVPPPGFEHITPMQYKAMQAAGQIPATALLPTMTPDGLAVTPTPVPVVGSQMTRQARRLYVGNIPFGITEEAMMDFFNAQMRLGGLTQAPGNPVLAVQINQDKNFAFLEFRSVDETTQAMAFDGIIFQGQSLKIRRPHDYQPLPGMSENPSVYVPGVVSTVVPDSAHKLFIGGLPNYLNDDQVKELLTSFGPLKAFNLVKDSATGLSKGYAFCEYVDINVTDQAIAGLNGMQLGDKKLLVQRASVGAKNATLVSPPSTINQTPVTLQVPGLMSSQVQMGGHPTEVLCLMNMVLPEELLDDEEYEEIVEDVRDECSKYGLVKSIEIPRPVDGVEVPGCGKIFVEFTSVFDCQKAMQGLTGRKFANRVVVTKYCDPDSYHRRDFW
CDK5 with p25: Cyclin-dependent kinase 5, with p25 (CDK5, Homo sapiens, UniProt Q00535)
Sequence of UniProt Q00535 (whole entry, looked up): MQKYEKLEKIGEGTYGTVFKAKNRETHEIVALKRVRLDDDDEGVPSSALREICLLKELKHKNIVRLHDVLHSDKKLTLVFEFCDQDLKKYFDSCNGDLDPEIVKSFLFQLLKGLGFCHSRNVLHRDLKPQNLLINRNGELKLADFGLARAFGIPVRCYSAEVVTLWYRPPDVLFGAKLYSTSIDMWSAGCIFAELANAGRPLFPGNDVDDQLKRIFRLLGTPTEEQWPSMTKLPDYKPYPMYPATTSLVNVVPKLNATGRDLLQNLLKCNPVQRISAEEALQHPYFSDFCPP
B1: human GANAB; sequence looked up; chain ITLAVDRSNFKTCEESSFCKRQRSIRPGLSPYRALLDSLQLGPDSLTVHLIHEVTKVLLVLELQGLQKNMTRFRIDELEPRRPRYRVPDVLVADPPIARLSVSGRDENSVELTMAEGPYKIILTARPFRLDLLEDRSLLLSVNARGLLEFEHQRAPRVSQGSKDPAEGDGAQPEETPRDGDKPEETQGKAEKDEPGAWEETFKTHSDSKPYGPMSVGLDFSLPGMEHVYGIPEHADNLRLKVTEGGEPYRLYNLDVFQYELYNPMALYGSVPVLLAHNPHRDLGIFWLNAAETWVDISSNTAGKTLFGKMMDYLQGSGETPQTDVRWMSETGIIDVFLLLGPSISDVFRQYASLTGTQALPPLFSLGYHQSRWNYRDEADVLEVDQGFDDHNLPCDVIWLDIEHADGKRYFTWDPSRFPQPRTMLERLASKRRKLVAIVDPHIKVDSGYRVHEELRNLGLYVKTRDGSDYEGWCWPGSAGYPDFTNPTMRAWWANMFSYDNYEGSAPNLFVWNDMNEPSVFNGPEVTMLKDAQHYGGWEHRDVHNIYGLYVHMATADGLRQRSGGMERPFVLARAFFAGSQRFGAVWTGDNTAEWDHLKISIPMCLSLGLVGLSFCGADVGGFFKNPEPELLVRWYQMGAYQPFFRAHAHLDTGRREPWLLPSQHNDIIRDALGQRYSLLPFWYTLLYQAHREGIPVMRPLWVQYPQDVTTFNIDDQYLLGDALLVHPVSDSGAHGVQVYLPGQGEVWYDIQSYQKHHGPQTLYLPVTLSSIPVFQRGGTIVPRWMRVRRSSECMKDDPITLFVALSPQGTAQGELFLDDGHTFNYQTRQEFLLRRFSFSGNTLVSSSADPEGHFETPIWIERVVIIGAGKPAAVVLQTKGSPESRLSFQHDPETSVLVLRKPGINVASDWSIHLR
B2: mortalin (human); sequence looked up; chain ASEAIKGAVVGIDLGTTNSCVAVMEGKQAKVLENAEGARTTPSVVAFTADGERLVGMPAKRQAVTNPNNTFYATKRLIGRRYDDPEVQKDIKNVPFKIVRASNGDAWVEAHGKLYSPSQIGAFVLMKMKETAENYLGHTAKNAVITVPAYFNDSQRQATKDAGQISGLNVLRVINEPTAAALAYGLDKSEDKVIAVYDLGGGTFDISILEIQKGVFEVKSTNGDTFLGGEDFDQALLRHIVKEFKRETGVDLTKDNMALQRVREAAEKAKCELSSSVQTDINLPYLTMDSSGPKHLNMKLTRAQFEGIVTDLIRRTIAPCQKAMQDAEVSKSDIGEVILVGGMTRMPKVQQTVQDLFGRAPSKAVNPDEAVAIGAAIQGGVLAGDVTDVLLLDVTPLSLGIETLGGVFTKLINRNTTIPTKKSQVFSTAADGQTQVEIKVCQGEREMAGDNKLLGQFTLIGIPPAPRGVPQIEVTFDIDANGIVHVSAKDKGTGREQQIVIQSSGGLSKDDIENMVKNAEKYAEEDRRKKERVEAVNMAEGIIHDTETKMEEFKDQLPADECNKLKEEISKMRELLARKDSETGENIRQAASSLQQASLKLFEMAYKKMASEREGSGSSGTGEQKEDQKEEKQ
B3: chain MSEILPYGEDKMGRFGADPEGSDLSFSCRLQDTNSFFAGNQAKRPPKLGQIGRAKRVVIEDDRIDDVLKGMGEKPPSGV
Sequence of UniProt Q64663 (whole entry, unmodified, looked up): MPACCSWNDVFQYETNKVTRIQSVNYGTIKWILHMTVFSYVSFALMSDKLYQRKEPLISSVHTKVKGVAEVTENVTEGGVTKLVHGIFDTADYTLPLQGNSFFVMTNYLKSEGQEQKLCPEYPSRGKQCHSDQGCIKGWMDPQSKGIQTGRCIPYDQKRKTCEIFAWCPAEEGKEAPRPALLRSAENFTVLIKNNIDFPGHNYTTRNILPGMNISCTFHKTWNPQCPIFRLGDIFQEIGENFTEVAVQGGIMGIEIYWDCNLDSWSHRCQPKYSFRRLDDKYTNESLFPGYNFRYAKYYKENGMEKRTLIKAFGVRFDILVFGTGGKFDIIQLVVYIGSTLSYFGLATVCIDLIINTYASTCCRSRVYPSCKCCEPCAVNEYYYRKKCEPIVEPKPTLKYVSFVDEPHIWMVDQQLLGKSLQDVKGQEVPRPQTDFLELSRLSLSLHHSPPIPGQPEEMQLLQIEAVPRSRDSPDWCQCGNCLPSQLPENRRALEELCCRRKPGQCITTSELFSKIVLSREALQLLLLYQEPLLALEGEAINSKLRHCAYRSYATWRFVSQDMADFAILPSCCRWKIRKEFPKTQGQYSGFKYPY
Sequence of UniProt Q9UQM7 (whole entry, unmodified, looked up): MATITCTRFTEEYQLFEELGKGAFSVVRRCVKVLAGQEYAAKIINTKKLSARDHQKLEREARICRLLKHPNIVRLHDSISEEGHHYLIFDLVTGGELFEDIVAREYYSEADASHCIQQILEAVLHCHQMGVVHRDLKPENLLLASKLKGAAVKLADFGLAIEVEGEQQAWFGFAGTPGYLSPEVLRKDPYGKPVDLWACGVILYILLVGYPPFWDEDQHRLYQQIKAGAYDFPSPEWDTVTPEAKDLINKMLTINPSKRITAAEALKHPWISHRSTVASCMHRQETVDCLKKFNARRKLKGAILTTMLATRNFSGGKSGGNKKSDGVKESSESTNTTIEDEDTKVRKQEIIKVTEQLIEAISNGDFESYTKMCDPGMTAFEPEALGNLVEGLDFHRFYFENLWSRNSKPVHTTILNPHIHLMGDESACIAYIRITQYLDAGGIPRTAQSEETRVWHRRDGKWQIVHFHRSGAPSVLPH
Sequence of UniProt Q5ANA3 (whole entry, looked up): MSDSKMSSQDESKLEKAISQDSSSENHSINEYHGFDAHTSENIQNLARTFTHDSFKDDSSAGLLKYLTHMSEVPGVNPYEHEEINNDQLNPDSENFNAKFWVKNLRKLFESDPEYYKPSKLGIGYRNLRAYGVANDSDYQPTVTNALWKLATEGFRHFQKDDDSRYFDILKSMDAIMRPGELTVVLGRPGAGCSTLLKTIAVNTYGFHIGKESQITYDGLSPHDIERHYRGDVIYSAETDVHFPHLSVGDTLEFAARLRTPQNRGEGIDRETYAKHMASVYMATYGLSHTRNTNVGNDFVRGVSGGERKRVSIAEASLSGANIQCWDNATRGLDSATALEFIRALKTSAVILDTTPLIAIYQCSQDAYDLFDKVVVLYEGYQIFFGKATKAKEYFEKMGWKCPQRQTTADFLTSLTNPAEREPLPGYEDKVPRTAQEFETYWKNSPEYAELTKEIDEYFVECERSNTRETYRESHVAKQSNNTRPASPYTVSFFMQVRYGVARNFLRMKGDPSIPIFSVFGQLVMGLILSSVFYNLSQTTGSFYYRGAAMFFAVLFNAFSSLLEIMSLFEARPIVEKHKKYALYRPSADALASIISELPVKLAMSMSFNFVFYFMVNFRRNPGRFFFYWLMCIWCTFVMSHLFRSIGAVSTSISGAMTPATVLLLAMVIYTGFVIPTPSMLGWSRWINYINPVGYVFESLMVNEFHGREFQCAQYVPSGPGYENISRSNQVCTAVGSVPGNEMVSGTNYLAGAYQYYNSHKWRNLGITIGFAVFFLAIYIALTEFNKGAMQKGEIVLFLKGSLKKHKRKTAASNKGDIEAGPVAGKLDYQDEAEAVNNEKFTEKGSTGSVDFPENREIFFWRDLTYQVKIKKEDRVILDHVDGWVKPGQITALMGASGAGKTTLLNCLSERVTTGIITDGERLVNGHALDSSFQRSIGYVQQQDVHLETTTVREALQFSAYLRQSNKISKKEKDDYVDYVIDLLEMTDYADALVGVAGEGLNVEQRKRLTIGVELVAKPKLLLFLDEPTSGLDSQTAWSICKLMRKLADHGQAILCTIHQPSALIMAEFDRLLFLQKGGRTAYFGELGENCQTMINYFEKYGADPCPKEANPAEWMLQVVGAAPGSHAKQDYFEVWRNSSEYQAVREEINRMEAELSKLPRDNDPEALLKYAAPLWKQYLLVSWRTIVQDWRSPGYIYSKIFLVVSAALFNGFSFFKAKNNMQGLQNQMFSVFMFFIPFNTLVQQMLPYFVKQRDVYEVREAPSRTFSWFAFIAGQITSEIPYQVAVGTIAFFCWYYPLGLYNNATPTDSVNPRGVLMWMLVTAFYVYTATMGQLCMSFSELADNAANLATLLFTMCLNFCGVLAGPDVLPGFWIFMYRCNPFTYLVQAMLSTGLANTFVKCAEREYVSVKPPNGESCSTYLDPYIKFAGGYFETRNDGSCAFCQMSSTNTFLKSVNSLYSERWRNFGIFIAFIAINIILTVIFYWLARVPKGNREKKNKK

milbemycin oxime  fraction bound (CDR1 (Candida albicans, UniProt Q5ANA3); binding, microscale thermophoresis; 1.22 nM): -5.35%
CUCAUUUUU (ssRNA)  Kd (U2AF2; sequencing of bound RNA; RNA; motif only): 2560 nM
KEAFWDKCLSVINLMSSKMLQINA  activity change (CDK5 with p25; phosphotransferase activity, radiometric; peptide; concentration not given, 10% DMSO, with: histone substrate; baseline: p5-WT peptide): 37%
human ME2 Q101T  Hill coefficient (enzyme activity, NADH absorbance; with fumarate 3 mM, with: L-malate varied): 1.01 ± 0.08
BzATP  normalized current (P2X purinoceptor 7 (P2rx7, Rattus norvegicus, UniProt Q64663, Q143A); ion current, agonist, two-electrode voltage clamp; Xenopus oocytes; 3.7 µM): 0.32 and 0.175 and 0.157
B1 (human GANAB)  log2 fold change (CYB5R4 knockout human cells; PP4 interaction, 3xFLAG-PP4C IP-MS; concentration not given; baseline: CYB5R4 KO over parental): -1.47
KEAFWDRCLSVVNLMSSKMLQINA  activity change (CDK5 with p25; phosphotransferase activity, radiometric; peptide; concentration not given, 10% DMSO, with: histone substrate; baseline: p5-WT peptide): 59%
B2 (mortalin)  log2 fold change (PP6C (human); co-immunoprecipitation, IP-MS; CYB5R4 knockout cells; concentration not given; baseline: CYB5R4 knockout over parental): -0.38
human ME2 G124S mutant  Hill coefficient (enzyme activity, NADH absorbance; without fumarate, with: L-malate varied): 1 ± 0.01
KEAFWDRCLSVINLMSSKMLQING  activity change (CDK5 with p25; phosphotransferase activity, radiometric; peptide; concentration not given, 10% DMSO, with: histone substrate; baseline: p5-WT peptide): 38%
human ME2 I58F  activation fold (enzyme activity, activator, NADH absorbance; recombinant enzyme; range over 0 to 5 mM, pH 7.4; baseline: wild type): 0.9
AAUUACUUG (ssRNA)  Kd (U2AF2; sequencing of bound RNA; RNA; motif only): 2970 nM
KEAFWDRCLSVINLMSSKSLQINA  activity change (CDK5 with p25; phosphotransferase activity, radiometric; peptide; concentration not given, 10% DMSO, with: histone substrate; baseline: p5-WT peptide): 45%
human ME2 R67A  Hill coefficient (enzyme activity, NADH absorbance; with fumarate 3 mM, with: L-malate varied): 1.2 ± 0.21
11-deoxycorticosterone  rate constant k-2 (CYP11B2 (human); substrate binding, stopped-flow global kinetic fitting; purified enzyme; 3-state conformational selection model, with: no adrenodoxin): 11.2 ± 0.631 s⁻¹
B3  −TΔS (Calcium/calmodulin-dependent protein kinase type II subunit alpha (CAMK2A, Homo sapiens, UniProt Q9UQM7, D135N); binding, ITC; kinase domain D135N; with: AMPPNP): -0.65 kcal/mol and -0.473 kcal/mol
